Experimental data of several laboratories.
Lines come from different studies, so protocols differ. ± marks the error that the study gave.

CC[C@H](CO)N(CCN(N=O)[C@H](CC)CO)N=O  revertant colonies per plate (Salmonella typhimurium; mutagenicity, Ames plate incorporation; TA100; 500 µg/plate, without S9, methanol): 137 ± 23
Nc1nc2c(ncn2COCCO)c(=O)[nH]1  therapeutic index (HSV-2 strain 333; viral DNA replication, qPCR; Vero; reference: CC50 over IC50): > 100
Cc1ccc(-c2ccc3c(c2)C=C(C(=O)Nc2ccc(C[N+](C)(C)C4CCOCC4)cc2)CCC3)cc1.[Cl-]  therapeutic index (human immunodeficiency virus 1; viral attachment, MAGI cell; MAGI cells, Ba-L; CCR5-tropic; reference: TC50 over IC50): > 1430
Cc1cc(Nc2ccc(S(F)(F)(F)(F)F)cc2)n2nc(C(C)(F)F)nc2n1  patients with QTcB increase (Plasmodium vivax; 12-lead ECG; malaria patients; oral, 600 mg, increase above 30 ms): 0%
CN(C)c1ccc(N=NS(=O)(=O)O)cc1  revertants per well (Salmonella typhimurium; mini-Ames test; TA97a; 2.0 µg/well, without S9): 176
CCOC(=O)c1cccc(Cn2ccc3ccc(-c4ccc5ccn(Cc6cccc(C(=O)O)c6)c5c4)cc32)c1  therapeutic index (human immunodeficiency virus 1; viral attachment, MAGI cell; MAGI cells, Ba-L; CCR5-tropic; reference: TC50 over IC50): 2.52
O=[N+]([O-])c1ccc2c(c1)Cc1ccccc1-2  revertants per well (Salmonella typhimurium; mini-Ames test; TA98; 2.0 µg/well, without S9): 308
Cc1cc(N)c2c(OCC(C)(C)C(=O)NC(C)C)cccc2n1  mean revertant colonies (Salmonella typhimurium; reverse mutation, plate incorporation; TA100; 10 µg/plate, without S9): 74 colonies/plate

For quick reference, copied from above:
CC[C@H](CO)N(CCN(N=O)[C@H](CC)CO)N=O  revertant colonies per plate (Salmonella typhimurium; mutagenicity, Ames plate incorporation; TA100; 500 µg/plate, without S9, methanol): 137 ± 23
